Measured values from different studies.
Numbered parts are unrelated; each lists some results of a single study. Values joined by “and” are separate records of one study, mostly repeats; a detail may differ.
Sequence of UniProt Q9Y5N1 (whole entry, looked up): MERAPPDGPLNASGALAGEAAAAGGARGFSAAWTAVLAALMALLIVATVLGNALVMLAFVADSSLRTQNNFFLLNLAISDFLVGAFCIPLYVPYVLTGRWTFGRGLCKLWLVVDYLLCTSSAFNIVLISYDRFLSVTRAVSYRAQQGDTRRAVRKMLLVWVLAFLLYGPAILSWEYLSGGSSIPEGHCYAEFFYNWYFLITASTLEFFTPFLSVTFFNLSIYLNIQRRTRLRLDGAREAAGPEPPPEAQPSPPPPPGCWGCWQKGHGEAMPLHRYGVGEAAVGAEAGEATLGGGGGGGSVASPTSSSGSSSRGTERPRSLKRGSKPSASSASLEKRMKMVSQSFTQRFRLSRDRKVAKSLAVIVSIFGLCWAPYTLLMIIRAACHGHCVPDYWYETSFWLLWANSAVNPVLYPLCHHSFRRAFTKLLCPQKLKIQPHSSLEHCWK
Sequence of UniProt P35348 (whole entry, looked up): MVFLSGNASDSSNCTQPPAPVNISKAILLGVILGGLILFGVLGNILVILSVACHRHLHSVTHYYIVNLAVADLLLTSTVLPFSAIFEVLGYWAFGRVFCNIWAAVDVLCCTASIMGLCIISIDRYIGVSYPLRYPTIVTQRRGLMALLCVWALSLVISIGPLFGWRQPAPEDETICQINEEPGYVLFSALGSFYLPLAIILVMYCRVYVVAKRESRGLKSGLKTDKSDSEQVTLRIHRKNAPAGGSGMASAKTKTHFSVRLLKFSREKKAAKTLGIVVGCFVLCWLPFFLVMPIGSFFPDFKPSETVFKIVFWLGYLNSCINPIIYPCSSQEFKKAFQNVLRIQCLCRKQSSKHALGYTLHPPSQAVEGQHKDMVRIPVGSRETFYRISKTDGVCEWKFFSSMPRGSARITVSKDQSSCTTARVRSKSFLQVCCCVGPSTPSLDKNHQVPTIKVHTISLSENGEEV
Sequence of UniProt P35367 (whole entry, looked up): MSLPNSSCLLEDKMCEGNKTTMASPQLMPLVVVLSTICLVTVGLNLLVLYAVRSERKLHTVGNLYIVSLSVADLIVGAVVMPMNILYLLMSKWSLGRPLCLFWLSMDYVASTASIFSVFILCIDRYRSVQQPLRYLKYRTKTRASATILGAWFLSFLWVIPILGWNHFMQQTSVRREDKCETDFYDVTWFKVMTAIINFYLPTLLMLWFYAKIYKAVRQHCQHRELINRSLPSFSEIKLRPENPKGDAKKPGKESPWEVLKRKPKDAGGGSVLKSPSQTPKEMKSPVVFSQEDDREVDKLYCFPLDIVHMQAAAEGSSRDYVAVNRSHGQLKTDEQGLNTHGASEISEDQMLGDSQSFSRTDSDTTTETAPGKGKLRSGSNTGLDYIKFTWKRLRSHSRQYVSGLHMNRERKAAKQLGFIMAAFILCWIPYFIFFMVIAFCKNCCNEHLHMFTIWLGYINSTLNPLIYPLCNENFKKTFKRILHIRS

Set 1
Target: DNA polymerase theta, ATPase domain (POLQ, Homo sapiens, UniProt O75417)
Sequence of UniProt O75417 (whole entry, unmodified, looked up): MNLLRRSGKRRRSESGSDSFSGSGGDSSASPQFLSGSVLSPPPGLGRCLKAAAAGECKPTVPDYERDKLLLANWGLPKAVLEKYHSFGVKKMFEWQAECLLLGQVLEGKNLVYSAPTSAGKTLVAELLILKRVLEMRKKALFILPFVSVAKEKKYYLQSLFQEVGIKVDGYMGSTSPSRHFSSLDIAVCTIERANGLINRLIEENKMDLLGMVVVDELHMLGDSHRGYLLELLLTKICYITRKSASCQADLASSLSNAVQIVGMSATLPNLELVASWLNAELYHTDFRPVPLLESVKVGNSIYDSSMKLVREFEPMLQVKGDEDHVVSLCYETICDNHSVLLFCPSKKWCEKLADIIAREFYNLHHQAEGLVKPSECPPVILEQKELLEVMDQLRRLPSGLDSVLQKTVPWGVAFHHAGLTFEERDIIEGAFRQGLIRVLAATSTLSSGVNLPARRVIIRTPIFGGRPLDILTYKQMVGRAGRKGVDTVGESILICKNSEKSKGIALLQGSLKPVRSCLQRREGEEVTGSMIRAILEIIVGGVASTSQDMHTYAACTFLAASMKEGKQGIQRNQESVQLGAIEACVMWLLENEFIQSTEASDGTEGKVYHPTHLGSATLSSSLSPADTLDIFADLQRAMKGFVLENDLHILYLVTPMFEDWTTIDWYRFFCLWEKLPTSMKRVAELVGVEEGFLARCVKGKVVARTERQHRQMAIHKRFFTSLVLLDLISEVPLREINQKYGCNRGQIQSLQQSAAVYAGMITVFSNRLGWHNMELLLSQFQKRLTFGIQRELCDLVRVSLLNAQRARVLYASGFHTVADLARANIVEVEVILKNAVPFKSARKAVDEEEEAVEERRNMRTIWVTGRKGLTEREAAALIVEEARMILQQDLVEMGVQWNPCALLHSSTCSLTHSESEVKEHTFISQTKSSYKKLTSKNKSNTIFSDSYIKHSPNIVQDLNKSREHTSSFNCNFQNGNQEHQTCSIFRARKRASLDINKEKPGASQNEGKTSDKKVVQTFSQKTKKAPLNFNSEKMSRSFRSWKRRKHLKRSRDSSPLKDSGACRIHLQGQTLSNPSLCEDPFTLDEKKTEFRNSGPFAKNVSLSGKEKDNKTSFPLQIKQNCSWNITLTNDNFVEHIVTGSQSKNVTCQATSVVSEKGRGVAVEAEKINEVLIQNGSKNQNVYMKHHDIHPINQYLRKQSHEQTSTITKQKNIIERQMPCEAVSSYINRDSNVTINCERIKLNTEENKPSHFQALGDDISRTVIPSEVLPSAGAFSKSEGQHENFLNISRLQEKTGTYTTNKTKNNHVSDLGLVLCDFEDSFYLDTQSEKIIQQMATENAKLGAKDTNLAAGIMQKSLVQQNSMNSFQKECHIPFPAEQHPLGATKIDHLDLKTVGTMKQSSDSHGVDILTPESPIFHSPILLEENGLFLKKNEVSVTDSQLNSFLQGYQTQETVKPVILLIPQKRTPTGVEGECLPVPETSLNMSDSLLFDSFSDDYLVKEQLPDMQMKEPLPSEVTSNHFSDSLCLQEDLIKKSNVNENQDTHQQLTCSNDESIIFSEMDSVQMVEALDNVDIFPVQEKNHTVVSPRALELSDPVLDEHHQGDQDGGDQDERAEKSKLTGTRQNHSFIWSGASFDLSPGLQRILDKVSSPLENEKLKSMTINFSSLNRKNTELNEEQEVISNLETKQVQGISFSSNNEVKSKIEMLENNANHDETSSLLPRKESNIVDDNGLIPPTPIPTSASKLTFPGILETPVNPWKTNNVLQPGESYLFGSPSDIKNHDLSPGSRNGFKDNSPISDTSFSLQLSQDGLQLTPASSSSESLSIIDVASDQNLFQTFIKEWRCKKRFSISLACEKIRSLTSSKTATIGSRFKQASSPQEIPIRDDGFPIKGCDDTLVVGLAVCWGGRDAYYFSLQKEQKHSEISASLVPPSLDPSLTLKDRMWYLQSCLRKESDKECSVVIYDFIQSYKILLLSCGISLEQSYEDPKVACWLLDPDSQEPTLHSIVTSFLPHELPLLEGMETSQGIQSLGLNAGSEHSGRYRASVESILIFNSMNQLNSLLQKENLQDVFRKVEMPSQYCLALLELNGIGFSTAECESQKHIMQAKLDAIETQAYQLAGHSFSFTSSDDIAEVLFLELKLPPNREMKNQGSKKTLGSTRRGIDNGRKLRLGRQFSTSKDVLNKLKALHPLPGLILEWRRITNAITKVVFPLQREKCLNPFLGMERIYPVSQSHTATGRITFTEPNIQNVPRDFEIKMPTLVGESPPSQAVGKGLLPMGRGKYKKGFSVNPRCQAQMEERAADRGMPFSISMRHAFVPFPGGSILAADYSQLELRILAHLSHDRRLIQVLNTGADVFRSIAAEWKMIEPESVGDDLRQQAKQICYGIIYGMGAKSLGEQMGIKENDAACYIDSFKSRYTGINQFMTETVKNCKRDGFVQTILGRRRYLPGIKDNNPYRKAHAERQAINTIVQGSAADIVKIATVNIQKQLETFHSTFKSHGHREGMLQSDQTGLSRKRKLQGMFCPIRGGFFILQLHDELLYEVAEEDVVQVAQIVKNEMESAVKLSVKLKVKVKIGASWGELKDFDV
Read-out: enzyme activity
Action: inhibitor
Concentration: 77 µM
Relative to: untreated
Endpoint: remaining activity
CC(=O)N1CCN(c2ccc(OC[C@@H]3CO[C@@](Cn4ccnc4)(c4ccc(Cl)cc4Cl)O3)cc2)CC1 (racemic): 134% and 157%
CC(=O)O[C@]1(C(C)=O)CC[C@H]2[C@@H]3C=C(C)C4=CC(=O)CC[C@@H]4[C@H]3CC[C@@]21C: 88.9%
COc1ccc(-n2nc(C(N)=O)c3c2C(=O)N(c2ccc(N4CCCCC4=O)cc2)CC3)cc1: 89.6%
CCn1ccnc1CC1COc2ccccc2O1 (stereo not shown): 98.9%
Nc1nc2c(ncn2[C@@H]2O[C@H](CO)[C@@H](O)[C@H]2O)c(=O)[nH]1: 94.4%

Set 2
Cell line: mouse MPNST tumor cells
Method: high-content nuclear imaging
Refers to: cell number
Concentration: 10 µM
Time: 12 h
Notes: mean of 2 replicates
Relative to: plate mean
Reading: higher = more cells
Endpoint: nuclei count
Cc1c(O)cccc1C(=O)N[C@@H](CSc1ccccc1)[C@H](O)CN1C[C@H]2CCCC[C@H]2C[C@H]1C(=O)NC(C)(C)C: 1.92 z-score
NC1CCN(c2nc3c(cc2F)c(=O)c(C(=O)O)cn3-c2ccc(F)cc2F)C1 (stereo not shown): -0.279 z-score
Cc1ccccc1N1C(=O)c2cc(S(N)(=O)=O)c(Cl)cc2NC1C (stereo not shown): -0.473 z-score
O=C(NNc1nc2cc(F)ccc2n2cccc12)c1cnccn1: -2.79 z-score
CC(NCCC(c1ccccc1)c1ccccc1)c1ccccc1 (stereo not shown): -5.22 z-score
CC(C)c1nc(CN(C)C(=O)N[C@H](C(=O)N[C@@H](Cc2ccccc2)C[C@H](O)[C@H](Cc2ccccc2)NC(=O)OCc2cncs2)C(C)C)cs1: 1.15 z-score
CN1CCN(CC/C=C2/c3ccccc3Sc3ccc(S(=O)(=O)N(C)C)cc32)CC1: -4.73 z-score

Set 3
Target: Serine/threonine-protein kinase TAO3 (TAOK3, Homo sapiens, UniProt Q9H2K8)
Sequence of UniProt Q9H2K8 (whole entry, looked up): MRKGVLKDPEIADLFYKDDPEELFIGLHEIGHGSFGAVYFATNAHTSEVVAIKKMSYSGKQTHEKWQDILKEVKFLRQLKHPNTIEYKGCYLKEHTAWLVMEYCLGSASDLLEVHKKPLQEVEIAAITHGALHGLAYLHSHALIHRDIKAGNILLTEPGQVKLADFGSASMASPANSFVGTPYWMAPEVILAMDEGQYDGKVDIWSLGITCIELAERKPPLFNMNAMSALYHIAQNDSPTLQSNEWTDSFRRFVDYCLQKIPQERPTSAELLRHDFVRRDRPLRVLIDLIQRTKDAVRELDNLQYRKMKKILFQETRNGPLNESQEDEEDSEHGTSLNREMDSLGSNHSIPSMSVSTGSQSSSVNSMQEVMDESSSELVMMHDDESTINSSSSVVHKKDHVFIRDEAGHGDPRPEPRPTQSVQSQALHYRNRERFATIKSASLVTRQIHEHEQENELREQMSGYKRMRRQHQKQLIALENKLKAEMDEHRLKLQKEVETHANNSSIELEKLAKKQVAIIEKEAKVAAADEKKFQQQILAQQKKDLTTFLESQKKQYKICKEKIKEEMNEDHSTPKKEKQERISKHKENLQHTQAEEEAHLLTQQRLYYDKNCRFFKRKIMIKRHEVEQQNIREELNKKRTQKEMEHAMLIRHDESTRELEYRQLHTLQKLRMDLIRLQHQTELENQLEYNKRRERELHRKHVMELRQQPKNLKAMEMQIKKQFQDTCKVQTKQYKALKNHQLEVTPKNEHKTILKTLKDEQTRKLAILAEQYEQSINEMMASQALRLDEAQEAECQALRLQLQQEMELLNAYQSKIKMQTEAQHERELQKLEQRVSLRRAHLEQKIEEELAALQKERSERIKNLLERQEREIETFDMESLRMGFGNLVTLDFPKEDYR
Read-out: enzyme activity
Action: inhibitor
Concentration: 0.5 µM
Relative to: control
Endpoint: remaining activity
Oc1ccc(-c2nc(-c3ccncc3)c(-c3ccc(F)cc3)[nH]2)cc1: 103%
CO[C@H]1C[C@@H]2CC[C@@H](C)[C@@](O)(O2)C(=O)C(=O)N2CCCC[C@H]2C(=O)O[C@H]([C@H](C)C[C@@H]2CC[C@@H](O)[C@H](OC)C2)CC(=O)[C@H](C)/C=C(\C)[C@@H](O)[C@@H](OC)C(=O)[C@H](C)C[C@H](C)/C=C/C=C/C=C/1C: 106%
COc1ccc(CNC(=O)Nc2ncc([N+](=O)[O-])s2)cc1: 98.5%
O=C1NC(=O)C(c2cn(CCCO)c3ncccc23)=C1c1cnccn1: 88.2%
Cc1ccc(Nc2nccc(N(C)c3ccc4c(C)n(C)nc4c3)n2)cc1S(N)(=O)=O: 55.5%
Cc1nc(-c2ccccc2)c(-c2ccncc2)o1: 99%
N#CC(C#N)=C(N)/C(C#N)=C/c1ccc(O)cc1: 102%
NCCNc1ncc(C(N)=O)c(Nc2cccc(C(F)(F)F)c2)n1: 83.6%
OCC(O)CCON=C1C(c2c(O)[nH]c3ccccc23)=Nc2ccccc21 (stereo not shown): 55.4%
COc1cc2nccc(Oc3ccc(NC(=S)NC(=O)c4ccccc4C)cc3)c2cc1OC: 87.9%
Cc1ccc(NC(=O)c2ccc(CN3CCN(C)CC3)cc2)cc1Nc1nc(-c2cccnc2)cs1: 95.4%
COc1cc2ncnc(Nc3ccc(F)c(Cl)c3)c2cc1OCCCN1CCOCC1: 99.5%
O=C(Nc1cccc(Nc2cc(Nc3cccc(C(F)(F)F)c3)ncn2)c1)C1CC1: 98.7%
Nc1ncnc2n[nH]c(Nc3ccc(F)cc3)c12: 92.4%
Cn1sc(=O)n(Cc2ccccc2)c1=O: 101%

Set 4
Compound: O=C(c1ccc(F)cc1)N1CC(COc2ccc(Br)cc2)(C(=O)O)C1
Read-out: cell-free assay
Concentration: 10 µM
Endpoint: inhibition
HRH3 (Homo sapiens, UniProt Q9Y5N1): -20%
ADRB3 (Homo sapiens, UniProt P13945): -13.3%
HRH1 (Homo sapiens, UniProt P35367): -4.38%
CHRM4 (Homo sapiens, UniProt P08173): -16%
HRH2 (Homo sapiens, UniProt P25021): 15.7%
ADRA1A (Homo sapiens, UniProt P35348): -4.09%
CHRM2 (Homo sapiens, UniProt P08172): 26.7%

For quick reference, copied from above (set 2):
NC1CCN(c2nc3c(cc2F)c(=O)c(C(=O)O)cn3-c2ccc(F)cc2F)C1 (stereo not shown): -0.279 z-score
Cc1ccccc1N1C(=O)c2cc(S(N)(=O)=O)c(Cl)cc2NC1C (stereo not shown): -0.473 z-score
O=C(NNc1nc2cc(F)ccc2n2cccc12)c1cnccn1: -2.79 z-score
CC(NCCC(c1ccccc1)c1ccccc1)c1ccccc1 (stereo not shown): -5.22 z-score
CC(C)c1nc(CN(C)C(=O)N[C@H](C(=O)N[C@@H](Cc2ccccc2)C[C@H](O)[C@H](Cc2ccccc2)NC(=O)OCc2cncs2)C(C)C)cs1: 1.15 z-score
CN1CCN(CC/C=C2/c3ccccc3Sc3ccc(S(=O)(=O)N(C)C)cc32)CC1: -4.73 z-score
